Published values of several laboratories.
Numbers after ± are the reported error.
Sequence of UniProt O60656 (whole entry, looked up): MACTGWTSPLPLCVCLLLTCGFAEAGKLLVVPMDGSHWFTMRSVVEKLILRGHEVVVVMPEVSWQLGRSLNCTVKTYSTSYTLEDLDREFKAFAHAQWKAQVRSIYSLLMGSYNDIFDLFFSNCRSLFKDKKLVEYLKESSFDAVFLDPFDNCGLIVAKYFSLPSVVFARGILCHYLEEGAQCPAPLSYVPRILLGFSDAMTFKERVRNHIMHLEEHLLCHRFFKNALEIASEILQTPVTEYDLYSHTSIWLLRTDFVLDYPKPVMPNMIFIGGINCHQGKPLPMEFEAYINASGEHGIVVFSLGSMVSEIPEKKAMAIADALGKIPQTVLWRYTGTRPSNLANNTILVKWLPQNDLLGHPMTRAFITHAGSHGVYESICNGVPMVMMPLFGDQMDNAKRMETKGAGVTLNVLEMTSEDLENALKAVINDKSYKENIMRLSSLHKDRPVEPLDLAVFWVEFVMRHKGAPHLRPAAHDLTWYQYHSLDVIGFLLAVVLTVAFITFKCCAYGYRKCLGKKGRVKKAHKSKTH

| Substance | target or system | assay | system | conditions | how to read | measurement | result |
| --- | --- | --- | --- | --- | --- | --- | --- |
| C[C@]12C=CC(=O)C=C1CC[C@@H]1[C@@H]2C(=O)C[C@@]2(C)[C@H]1CC[C@]2(O)C(=O)CO | – | – | BALB/c mouse pristane-induced lupus | oral, 15 mg/kg, weeks 1 to 20, read at week 20 | – | anti-dsDNA titre | 8610 ± 1640 U/mL |
| COc1ccccc1[C@H](Cn1c(=O)n(C(C)(C)C(=O)O)c(=O)c2c(C)c(-c3ncco3)sc21)OC1CCOCC1 | – | fructose-stimulated hepatic de novo lipogenesis | human | oral, 20 mg | at least 70% inhibition | duration of DNL inhibition | ≥ 6 h |
| Cc1cccc2nc(-c3ccc(S(C)(=O)=O)cc3)c(Nc3ccccc3)n12 | – | formalin test | male Wistar rat | intraperitoneal, 40 mg/kg | baseline: control group | pain score AUC | decreased |
| Polymyxin B | – | – | human whole blood | 500 ng/mL, 4 h, 37 °C, added: E. coli LPS 0.5 ng/mL | baseline: LPS without compound | IL-10 release | 32.5 ± 15.8% |
| CC[C@@H](C(=O)Nc1ccc(C(N)=O)c(F)c1)n1cc(OC)c(-c2cc(Cl)ccc2-n2cc(C(F)(F)F)nn2)cc1=O | – | – | New Zealand White rabbit, FeCl2 jugular injury | intravenous, 6 mg/kg | – | thrombus weight | 0.6 mg |
| GAGUUGAGUUGAGUUGAGUUGAGUUGAGUUGAGUUGAGUUGAGUUGAGUUGAGUU (ssRNA; single strand) | mtrB full length assumed R58A (Bacillus subtilis, UniProt P19466) | filter binding | – | added: L-tryptophan 1 mM | – | Kd | 26 ± 3 nM |
| CCO[C@@H](Cc1ccc(OCCn2c(C)ccc2-c2ccc(SC)cc2)cc1)C(=O)O | – | plasma triglyceride not above vehicle | dyslipidemic Sprague-Dawley rat | added: ACC inhibitor 30 mg/kg | – | effective dose | ≥ 0.3 mg/kg |
| CC1CNc2c(cccc2S(=O)(=O)N[C@@H](CCCNC(=N)N)C(=O)N2CC[C@@H](C)C[C@@H]2C(=O)O)C1 (stereo partly shown) | – | platelet activation, inhibitor, ATP release | human platelet-rich plasma | 20% plasma, added: thrombin | – | EC50 | 33 nM |
| tissue plasminogen activator | – | item: fibrin | rat MCAO stroke model, brain | dose not given, 24 h, dosed 4 h after MCAO | baseline: saline | BBB leakage | increased |
| NCCCCCCNS(=O)(=O)c1cccc2c(Cl)cccc12 | – | inhibitor, co-immunoprecipitation | mouse forebrain slices | 20 µM, added: NMDA 100 µM for 5 min | – | NMDA-induced loss of PSD-95-α-actinin binding | inhibited |
| CC(C)C[C@H](NC(=O)[C@H](CO)NC(=O)[C@H](CCCNC(=N)N)NC(=O)[C@H](CC(=O)O)NC(=O)[C@H](CCC(=O)O)NC(=O)[C@H](C)NC(=O)[C@@H]1CCCN1C(=O)[C@H](C)NC(=O)[C@H](CCC(=O)O)NC(=O)[C@@H]1CCCN1C(=O)[C@@H]1CCCN1)C(N)=O | – | HPLC-EC | rat F344, unilateral 6-OHDA lesion, contralateral striatum | intranasal, 300 µg daily, 5 weeks post lesion | – | DOPAC level | 2420 ± 241 ng/g |
| O=c1c(O)c(-c2ccc(O)c(O)c2)oc2cc(O)cc(O)c12 | – | cell proliferation, CellTiter-Glo | cord blood CD34+ cells, human | 24 h, lowest dose with significant inhibition | baseline: vehicle | lowest effective concentration | 250 to 500 µM |
| insulin aspart | – | euglycaemic glucose clamp | elderly type 1 diabetes | subcutaneous, 0.2 U/kg | – | GIRmax | 4.9 mg/kg/min |
| C[C@H]1C[C@H]2CSC(N)=N[C@@]2(c2nc(NC(=O)c3ccc(OC(F)F)cn3)cs2)CO1 | – | item: CSF total Aβ | healthy adults | oral, 50 mg once daily, 14 days | baseline: placebo-adjusted baseline | percent change from baseline | -60.1% |
| CC(C)C[C@@H]1NC(=O)[C@H](CCCNC(=N)N)NC(=O)[C@H](Cc2c[nH]c3ccccc23)NC(=O)[C@H](CCCNC(=N)N)NC(=O)CNC(=O)CNC(=O)[C@H](CCCCN)NC(=O)CNC(=O)[C@H](Cc2c[nH]c3ccccc23)NC(=O)[C@H](CC(=O)O)NC(=O)[C@@H](NC(=O)[C@H](CCC(=O)O)NC(=O)[C@H](C)NC(=O)CCCC[C@@H]2SC[C@@H]3NC(=O)N[C@@H]32)CSSC[C@@H](C(=O)NCC(=O)N2CCC[C@H]2C(=O)O)NC(=O)[C@H](C)NC(=O)[C@H](CCC(=O)O)NC(=O)[C@H]([C@@H](C)O)NC(=O)[C@H](CCCCN)NC(=O)CNC(=O)[C@H](CO)NC(=O)[C@H](C)NC(=O)CNC(=O)[C@@H]2CCCN2C(=O)[C@H](Cc2c[nH]c3ccccc23)NC1=O | – | thioflavin S, Congo red | APPswe/PSEN1(A246E) mouse, young, brain hippocampus | s.c., once monthly, 5 to 12 months, with adjuvant | baseline: mock-immunized | amyloid plaque burden | 20 ± 4% |
| PACAP | – | item: ADAM10 | APP V717I transgenic mice, brain | intranasal, dose not given, 3 months | baseline: vehicle | mRNA level | 115 ± 7.8% |
| CC(C)n1nc(-c2ccc3oc(N)nc3c2)c2c(N)ncnc21 | – | – | Pten L/L mouse | oral gavage, 1 mg/kg daily, 60 days | – | invasive prostate cancer progression | inhibited |

| Substance | target or system | assay | system | conditions | how to read | measurement | result |
| --- | --- | --- | --- | --- | --- | --- | --- |
| CCOc1ccc(C[C@@H](N)C(=O)N[C@@H](Cc2ccccc2)C(=O)NC2CCN(C(=N)N)CC2)cc1.O=C(O)C(F)(F)F.O=C(O)C(F)(F)F | – | SD-OCT | mouse, retina | subcutaneous osmotic pump, 1.60 mg/kg/day, 48 h, added: VEGF 100 ng/eye intravitreal | baseline: baseline | increase in retinal thickness | 16.1 ± 3.8 µm |
| UGT1A9 (Homo sapiens, UniProt O60656) | COc1cc(/C=C/c2ccc(O)cc2)cc(OC)c1 | steady-state kinetics | – | pH 7.4, 37 °C | – | Vmax/Km | 1.1 µL/min/mg |
| COc1ccc([C@H](CC(=O)O)N2CCN(CCCc3ccc4c(n3)NCCC4)C2=O)cn1 | – | Masson's trichrome staining | obese ZSF1 rat, kidney | 400 mg/kg/day, 28 weeks | baseline: obese vehicle | kidney fibrosis score | decreased |
| SGVPDRF | – | – | peptide, human polyclonal IgM RF MCC | concentration not given, 5 µg/mL mAb II-481 coated, added: RF at 50% max binding concentration | – | inhibition | 80% |
| CCCn1cnc(C[C@H](NC(=O)[C@@H]2CCC(=O)C2)C(=O)N2CCC[C@H]2C(N)=O)c1 | – | – | Swiss albino mice | intravenous, 10 µmol/kg, added: pentobarbital 50 mg/kg i.p. 10 min later | – | sleeping time | 34.4 ± 1.4 min |
| Cn1c(-c2ccc(Br)s2)nc2cc(-c3nnc(-c4cc(-c5ccc(Cl)cc5Cl)nc5ccccc45)o3)ccc21 | – | – | human platelet-rich plasma | concentration not given | – | plasma recalcification time | 390 s |
| NYLAWYQ | – | – | peptide, human polyclonal IgM RF WEAK | concentration not given, 5 µg/mL mAb II-481 coated, added: RF at 50% max binding concentration | – | inhibition | 30% |
| C[C@H](NC(=O)CCc1nc2cccnc2n1Cc1ccc(OC(F)(F)F)cc1)c1ccc(Cl)cc1 | – | – | C57BL/6 mouse, bleomycin fibrosis | oral, 10 mg/kg twice daily, 21 days, prophylactic | – | lung collagen content | decreased |
| COc1cc(-c2nc3cc(Cl)ccc3[nH]2)ccc1OCc1ccccc1 | – | ABTS scavenging, absorbance | – | – | – | IC50 | 1660 nM |
| Oc1cccc2ccccc12 | – | fish short-term reproduction | Oryzias latipes, female, liver | 80.0 µg/L, 21 d | – | vitellogenin level | 3220 ± 623 ng/mg liver |
| insulin aspart | – | – | obese type 2 diabetes patients | subcutaneous, 0.2 U/kg, before standard meal | – | plasma glucose AUC(0-6 h) | 750 mg·h/dL |
| C[C@H]1c2cccc(O)c2C(=O)C2=C(O)[C@]3(O)C(=O)C(C(N)=O)=C(O)[C@@H](N(C)C)[C@@H]3[C@@H](O)[C@@H]21 | – | inducer, NanoBiT reporter | – | 100 µg/mL, after withdrawal | – | luminescence signal stability | ≥ 6 h |
| Cc1ccc(NC(=O)c2ccc(CN3CCN(C)CC3)cc2)cc1Nc1nccc(-c2cncc(-c3oncc3C)c2)n1 | – | – | mild-to-moderate Parkinson's disease patients | oral, 50 mg once daily, day 7, practically defined OFF state | direction not given | MDS-UPDRS part III score | 34.3 ± 10.7 |
| Cc1c(C(=O)NN2CCCCC2)nn(-c2ccc(Cl)cc2Cl)c1-c1ccc(Cl)cc1 | – | euglycemic clamp | rat, diet-induced obese, skeletal muscle | intraperitoneal, 10 mg/kg, 6 days | baseline: vehicle | glucose uptake | increased |
| CC1(C)CCC(CN2CCN(c3ccc(C(=O)NS(=O)(=O)c4ccc(NCC5CCOCC5)c([N+](=O)[O-])c4)c(Oc4cnc5[nH]ccc5c4)c3)CC2)=C(c2ccc(Cl)cc2)C1 | – | cell kill, PI exclusion flow cytometry | normal CD21+ B lymphocytes, dog, lymph node | 24 h | – | EC50 | 92 ± 140 nM |
| cilengitide | – | – | Sprague-Dawley rats, ethanol control, colon | ip, 18 mg/kg/day, 42 d | – | collagen deposition | 21 ± 2.2 % muscularis volume |
| O=C(O)CSc1nnc(C23CC4CC(CC(C4)C2)C3)n1-c1ccccc1 | – | paw oedema | rat | intraperitoneal, 20 mg/kg | – | inhibition in vivo | 28.9% |
